Measured values from different studies.
Each line is one published result; not all experiments were run side by side. Several values in a cell are separate wells, animals, samples, runs or records. ± gives the spread as reported.

| SMILES | assay | system | setting | scale | endpoint | value |
| --- | --- | --- | --- | --- | --- | --- |
| C[C@@H]1Cc2c([nH]c3ccccc23)[C@@H](c2c(F)cc(/C=C/C(=O)O)cc2F)N1CC(C)(C)F | ER agonist activity | immature rat | oral, 10 mg/kg daily x3 | – | uterine weight | 51 mg |
| Cc1ccc(NC(=O)c2ccc(CN3CCN(C)CC3)cc2)cc1Nc1nccc(-c2cccnc2)n1 | platelet aggregation | platelet-rich plasma | 0.1 µM, DMSO 130.6, with: collagen 2 mg/mL | – | lag time | 142 s |
| OC(CCN1CCCCC1)(c1ccccc1)C1CC2C=CC1C2 (stereo not drawn) | resting-state EEG | healthy elderly humans | oral, 2 mg, eyes closed, LS mean | – | EEG Alpha1-power Fz-Cz | 4.7 µV² |
| CN[C@@H]1COc2c(S(=O)(=O)NC(=O)Nc3c4c(cc5c3CCC5)CCC4)cnn2C1 | item: IL-18 | human participants, whole blood ex vivo | 900 mg twice daily, multiple doses, 144 h, IL-18, circulating, adjusted for, with: LPS/ATP | baseline: baseline | inhibition | 99.5% |
| Oc1cc2c(cc1O)C(Cc1ccccc1)NCC2 (stereo not drawn) | ferrozine | cell-free | 100 µM, DMSO solvent | – | Fe2+ chelation | 90.61 ± 0.71% |
| C[C@H](NC(=O)c1c(C(F)F)nn(C)c1Oc1cccc(C(F)(F)F)c1)c1ccc(C(=O)O)cc1 | irRECIST | human, advanced tumours | 750 mg | best overall response | stable disease | 42.9% |
| CN(C(=O)n1cnc(-c2ccc[n+]([O-])c2)c1)C1CCCCC1 | – | mice, formalin paw test | 0.3 mg/kg, late phase, with: anandamide 5 mg/kg i.p. | baseline: anandamide alone, direction not given | change in licking score | -42% |
| CC(=O)Oc1cc2c(s1)CCN(C(C(=O)C1CC1)c1ccccc1F)C2 (stereo not drawn) | light transmittance aggregometry | human patients, platelet-rich plasma | dose not given, 15 min, with: ADP 20 µM | baseline: patients | patients with IPA above 80% | 0% |
| COc1ccccc1[C@H](Cn1c(=O)n(C(C)(C)C(=O)O)c(=O)c2c(C)c(-c3ncco3)sc21)OC1CCOCC1 | [1-13C]acetate infusion, isotopomer analysis | overweight or obese healthy men, plasma VLDL-TG palmitate | oral, 20 mg single dose, 1 h post-dose, with: oral fructose | – | fractional hepatic DNL | 7.56 % new palmitate |
| c1ccc(-c2n[nH]cc2-c2ccnc3ccccc23)nc1 | kinase binding, competitor, MIB/MS competition, item: AKL1 | Candida albicans cell lysate | 10 µM | baseline: DMSO | log2 fold change | 1.76 |
| C=CCn1c(=O)c2cnc(Nc3ccc(N4CCN(C)CC4)cc3)nc2n1-c1ccc2c(n1)[C@@](O)(CC)CC2 | – | A-427, NOD/SCID mice, xenograft | oral, 150 mg/kg, intermittent, day 51 | baseline: vehicle | tumour volume difference | -317 ± 6.6 mm3 |
| COc1cc2cc(-c3ccc(CC(=O)Nc4cc(C(C)(C)C(F)(F)F)no4)cn3)cnc2cc1OC | RECIST v1.1 | RET-altered advanced solid tumour patients | oral, 20 mg once daily, phase I | – | partial response as best response | 0% |
| N#Cc1ccn2c(-c3ccncc3)c(-c3ccc(F)cc3)nc2c1 | kinase binding, competitor, MIB/MS competition, item: FPK1 | Candida albicans cell lysate | 10 µM | baseline: DMSO | log2 fold change | -0.294 |
| CN(C)C(=O)c1cc2cnc(Nc3ccc(N4CCNCC4)cn3)nc2n1C1CCCC1 | RNA-seq GSEA, item: HALLMARK_COAGULATION | MB002 tumour | concentration not given, in vivo | baseline: vehicle, direction not given | normalized enrichment score | -0.927 |
| N#Cc1ccc2c(-c3ccncc3)c(-c3ccc(F)cc3)nn2c1 | kinase binding, competitor, MIB/MS competition, item: GIN4 | Candida albicans cell lysate | 10 µM | baseline: DMSO | log2 fold change | 0.435 |
| CO[C@H]1CC[C@H](N2C(=O)CNc3ncc(-c4ccc(C(C)(C)O)nc4)nc32)CC1 | flow cytometry | stimulated monocytes, human, blood | 60 mg single dose, 3 h, mean | baseline: baseline | pAKT change from baseline | -44.8% |
| CN(C)C(=O)Oc1cccc([N+](C)(C)C)c1 | neuromuscular block reversal | rat | dose not given, 17.5 (unit not given), with: cisatracurium | baseline: T1 twitch | train-of-four ratio | 96.9 |
| NC(=O)c1cnc2[nH]ccc2c1N[C@@H]1[C@@H]2CC3C[C@H]1C[C@@](O)(C3)C2 | flow cytometry | Japanese healthy men, blood | oral, 30 mg twice daily, 72 h after day 7 dose | baseline: baseline | total memory T-cell change | -0.42% |
| COc1cc(-c2ccccc2)ncc1C(=O)Nc1ccc2c(=O)[nH]c(-c3ccc(C(C)(C)O)cc3)nc2c1 | RNA-seq GSEA, item: HALLMARK_BILE_ACID_METABOLISM | organoids, small intestinal, Apc Q1405X, mouse | dose not given, 3 days, knockout organoids | baseline: DMSO, direction not given | normalized enrichment score | 1.83 |
| CCN1[C@@H](C(=O)NC23CCC(C(=O)O)(CC2)CC3)[C@H](c2cccc(Cl)c2F)[C@]2(C(=O)Nc3cc(Cl)ccc32)C12CCCCC2 | – | human, peripheral blood | dose not given | – | CD19+ cells in blood | increased |
| CC(C)c1nc(N(C)S(C)(=O)=O)nc(-c2ccc(F)cc2)c1/C=C/[C@@H](O)C[C@@H](O)CC(=O)O | – | human, HIV-infected, plasma | median after treatment | – | HDL cholesterol | 1.2 mmol/L |

| SMILES | assay | system | setting | scale | endpoint | value |
| --- | --- | --- | --- | --- | --- | --- |
| C[C@H]1C[C@H]2CSC(N)=N[C@@]2(c2nc(NC(=O)c3ccc(OC(F)F)cn3)cs2)CO1 | item: total Aβ | healthy adults, plasma | 3 mg single dose, 8 h post-dose | baseline: placebo | percent change from baseline | -36.4% |
| Cn1cc(Nc2nccc(-c3ccc4c(c3)CN(C3COC3)CC[C@H]4NC(=O)c3cn(C(C)(C)C)nn3)n2)cn1 | item: Apelin pancreas signaling | splenic B cells, mice | 30 mg/kg, with: in vivo IgD activation | baseline: vehicle, direction not given | pathway activation z-score | 1.13 |
| C1#Cc2ccccc2C#Cc2ccccc21 | UV spectroscopy | methanol | room temperature, with: benzyl azide | – | second-order rate constant | 0.0482 M⁻¹ s⁻¹ and 0.0481 M⁻¹ s⁻¹ |
| Cc1n[nH]c2ccc(-c3cc(OC[C@@H](N)Cc4ccccc4)cnc3-c3ccoc3)cc12 | kinase binding, competitor, MIB/MS competition, item: AKL1 | Candida albicans cell lysate | 100 nM | baseline: DMSO | log2 fold change | -0.106 |
| COc1cc(Nc2ncc3c(n2)-c2ccc(Cl)cc2C(c2c(F)cccc2OC)=NC3)ccc1C(=O)O | – | mouse, NB-SD neuroblastoma xenograft | oral, 10.4 mg/kg, day 7 | baseline: vehicle | relative tumour volume T/C | 1.58 |
| N#Cc1ccc2c(c1)[C@H]1CCCN(C(=O)c3ccc4[nH]cnc4c3)[C@H]1C2 | – | human clinical trial | oral, 240 mg once daily | – | cortisol change from baseline | -3 nmol/L |
| CCCCCC1NCCc2cc(O)c(O)cc21 (stereo not drawn) | ferrozine | DMSO | 100 µM | – | Fe2+ chelation | 30.5 ± 1.97% |
| COc1ccccc1C(=O)NCc1ccc(CNS(=O)(=O)c2ccccc2)cc1 | xylene-induced ear edema | mouse | intraperitoneal, 10 mg/kg | – | ear edema | no effect |
| COc1ncnn2ccc(-c3cnc4nc(C)n(Cc5nnc([C@@H](C)F)o5)c4c3)c12 | – | Homo sapiens, relapsed or refractory AML or MDS | dose not given, sample A AML patients | – | CRi rate | 8.3% |
| C[C@H](Oc1ccc(Br)cc1-c1ccon1)C(=O)O | muscle velocity recovery cycles | human, tibialis anterior muscle | 1200 mg single dose, 3.5 h post-dose, frequency ramp, first response at 15 Hz | baseline: placebo | latency change | -1.51% |
| Cc1nn(-c2nc3c(F)cc(F)cc3s2)c(O)c1C(c1ccc(C(F)(F)F)cc1)c1c(C)nn(-c2nc3c(F)cc(F)cc3s2)c1O | item: inflammatory infiltration | mouse, cerulein-induced acute pancreatitis | 25 mg/kg | direction not given | histology score | 0 and 1 and 3 |
| N#Cc1ccc2c(c1)[C@H]1CCCN(C(=O)c3ccc4[nH]cnc4c3)[C@H]1C2 | – | T2DM patients with overweight or obesity, urine | oral, 20 mg, day 1, 0-24 h, multiple dosing, adjusted geometric mean | baseline: baseline day -1, -24-0 h | total urinary corticosteroid excretion | 158% |
| O=C(O)/C=C/c1ccc(Cn2ccnc2)cc1 | – | rat, MCAO/R model, plasma | intravenous, dose not given, 4 h | – | prothrombin time | 16.6 s |
| FC(F)(F)Oc1cccc(-c2cnc3ccc(-c4ccncc4)nn23)c1 | bioluminescence | mouse, MDA-MB-231-Luc xenograft | 30 mg/kg, day 14 | – | tumour growth | 185% and 337% and 199% and 232% and 130% |
| NCC(=O)Nc1cncc(-c2nn3c(=O)cc(N4CCNCC4)nc3s2)c1 | ADP-induced platelet aggregation, light transmission aggregometry | human, stable CAD on aspirin, ex vivo platelets | subcutaneous, 0.04 mg/kg, 30 min post-dose, mean value, with: ADP 20 µM | – | inhibition | 45% |
| CC1(C)CCC(c2ccc(Cl)cc2)=C(CN2CCN(c3ccc(C(=O)NS(=O)(=O)c4ccc(N[C@H](CCN5CCOCC5)CSc5ccccc5)c(S(=O)(=O)C(F)(F)F)c4)cc3)CC2)C1 | cell killing | canine blood CD3+ T cells, dog 31 | 24 h | – | EC50 | 63 nM |
| Cc1cn(-c2ccc3n(c2=O)CCN([C@@H](C)[C@@H]2CC[C@H](c4cc(F)c(Cl)cc4C(F)(F)F)O2)C3=O)cn1 | item: amyloid beta 38 | human, non-elderly, cerebrospinal fluid | 360 mg once daily, 14 days, sampled 336 h | baseline: placebo | change from baseline | 44.6% |
| CC(C)NCC(O)c1ccc(O)c(O)c1 (stereo not drawn) | – | ventricular cardiomyocytes, C57BL/6 mouse | dose not given, 0.568 s | – | sarcomere length | 1.55 µm |
| Oc1ccc(Br)cc1C=NCCN1CCOCC1 | hydroxyl radical scavenging | – | 40 µM | – | inhibition | 7.95% |
| O=C(O)CNC(=O)Cc1ccccc1 | – | ventricular cardiomyocytes, C57BL/6 mouse | dose not given, 0.344 s | – | sarcomere length | 1.72 µm |
| O=C(OC(C(F)(F)F)C(F)(F)F)N1CCN(Cc2cccc(Oc3ccccc3)c2)CC1 | PET | rhesus monkey, striatum | intravenous, 0.3 mg/kg, pretreatment blocking, with: [18F]T-401 | – | tracer distribution volume | 1.4 mL/cm3 |

For quick reference, copied from above:
| SMILES | assay | system | setting | scale | endpoint | value |
| --- | --- | --- | --- | --- | --- | --- |
| CC(C)c1nc(N(C)S(C)(=O)=O)nc(-c2ccc(F)cc2)c1/C=C/[C@@H](O)C[C@@H](O)CC(=O)O | – | human, HIV-infected, plasma | median after treatment | – | HDL cholesterol | 1.2 mmol/L |
| CCN1[C@@H](C(=O)NC23CCC(C(=O)O)(CC2)CC3)[C@H](c2cccc(Cl)c2F)[C@]2(C(=O)Nc3cc(Cl)ccc32)C12CCCCC2 | – | human, peripheral blood | dose not given | – | CD19+ cells in blood | increased |
| NCC(=O)Nc1cncc(-c2nn3c(=O)cc(N4CCNCC4)nc3s2)c1 | ADP-induced platelet aggregation, light transmission aggregometry | human, stable CAD on aspirin, ex vivo platelets | subcutaneous, 0.04 mg/kg, 30 min post-dose, mean value, with: ADP 20 µM | – | inhibition | 45% |
